Measurements pooled from the literature.
± marks the error that the study gave.

| SMILES | assay | system | conditions | scale | endpoint | result |
| --- | --- | --- | --- | --- | --- | --- |
| CCCCN1C(=O)c2cccc3c(NCCCN4CCOCC4)ccc(c23)C1=O |  | water | pH 6.0 |  | fluorescence lifetime | 5.4 ns |
| COc1cccc(OC)c1-c1cc(C(=O)NC2(C(=O)O)C3CC4CC(C3)CC2C4)nn1-c1ccc(C(=O)N(C)CCOCCN(C)C(=O)[C@H](CCCCNC(=O)[C@H](CC(C)C)NC(=O)C2OC2C(=O)O)NC(=O)CN2CCN(CC(=O)[O-])CCN(CC(=O)[O-])CCN(CC(=O)[O-])CC2)cc1C(C)C.[177Lu+3] (mixture of isomers) |  | mouse, HT-29 xenograft | 24 h post injection, biodistribution | reference: tumour over lung uptake | tumour-to-lung ratio | 1.46 |
| C=C(NC(=O)c1csc(-c2nc3c(cc2O)-c2nc(cs2)C(=O)NC(C(C)O)C(=O)NC(=C(C)OC)c2nc(cs2)C(=O)NC2c4nc(cs4)C(=O)NC(COC(=O)c4c5c6c(cccc6n4O)COC(=O)C(OC4CC(C)(O)C(N(C)C)C(C)O4)C2OC5)c2nc-3cs2)n1)C(N)=O (stereo not drawn) |  | cynomolgus monkey, both sexes, plasma | intravenous infusion, 1 mg/kg single dose |  | AUC(0-last) | 8260 ± 1080 ng·h/mL |
| OC1(C(F)(F)F)CCN(c2nc(Nc3ccnc(C(F)(F)F)c3)nc(-c3cccc(C(F)(F)F)n3)n2)C1 (stereo not drawn) |  | monkey, blood | oral, 1 mg/kg |  | MRT(0-inf) | 19.9 ± 3.14 h |
| O=C([O-])CN1CCN(CC(=O)[O-])CCN(CC(CCCc2ccccc2[N+](=O)[O-])N(CC(=O)[O-])CC(=O)[O-])CC1.[177Lu+3] (stereo not drawn) | TLC | human serum | 0 h, pH 7, 37 °C |  | intact radiolabelled complex | 100 ± 0.1% |
| CN(C)c1ccc(-c2oc3cc4ccccc4cc3c(=O)c2O)cc1 |  | DMSO | with: visible light |  | CO release quantum yield | 0.006 |
| CC(C)(O)c1ncc([S@](N)(=O)=NC(=O)Nc2c3c(cc4c2CCC4)CCC3)s1 |  | human plasma | -20 °C or below |  | storage stability | ≥ 269 days |
| C=CC(=O)Nc1cc(Nc2nccc(-c3c[nH]c4ccccc34)n2)c(OC)cc1N(C)CCN(C)C | storage stability | human plasma | 72 h, on ice, medium QC level |  | recovery | 69.2% |
| O=C(Nc1cnccc1-c1ccc([18F])nc1)c1ccnc(NC(=O)C2CC2)c1 |  | FVB/NJ mouse, both sexes, liver | intravenous, 50 min, with: tariquidar 15 mg/kg iv |  | SUV | 8.44 |
| CC(C)C[C@H](NC(=O)[C@H](CCCN)NC(=O)CNC(=O)[C@@H](NC(=O)[C@H](C)NC(=O)[C@@H]1CSCSC[C@H](NC(=O)CC[C@H](N)C(=O)O)C(=O)N[C@@H](CC(N)=O)C(=O)N[C@@H]([C@@H](C)O)C(=O)N[C@@H](C)C(=O)N[C@@H]([C@@H](C)O)C(=O)N1)[C@@H](C)O)C(=O)N[C@@H](C)C(=O)N[C@@H](CCC(=O)O)C(=O)N[C@@](C)(Cc1ccccc1)C(=O)N[C@@H](CC(C)C)C(=O)N[C@H](C(=O)N[C@@H](CCCNC(=N)N)C(=O)N[C@@H](CO)C(=O)N[C@@H](CO)C(=O)N[C@@H](CC(N)=O)C(=O)N(C)[C@@H](CC(N)=O)C(=O)N[C@@H](Cc1ccccc1)C(=O)NCC(=O)N1CCC[C@H]1C(=O)N[C@@H](CCCCNC(=O)CC[C@H](NC(=O)CC[C@H](NC(=O)CCCCCCCCCCCCCCCCCCC(=O)O)C(=O)O)C(=O)O)C(=O)N[C@@H](CC(C)C)C(=O)N1CCC[C@H]1C(=O)N1CCC[C@H]1C(=O)N[C@H](C(=O)N[C@@H](CCC(=O)O)C(=O)N[C@H](C(=O)NCC(=O)N[C@@H](CO)C(=O)N[C@@H](CC(N)=O)C(=O)N[C@H](C(=O)N[C@@H](Cc1ccc(O)cc1)C(N)=O)[C@@H](C)O)C(C)C)[C@@H](C)O)C(C)C |  | healthy human | subcutaneous, 4 mg |  | %AUC extrapolated | 5.8% |
| COc1cccc(OC)c1-c1cc(C(=O)NC2(C(=O)O)C3CC4CC(C3)CC2C4)nn1-c1ccc(C(=O)NCCNC(=O)[C@H](CCCCNC(=O)[C@H](CC(C)C)NC(=O)C2OC2C(=O)O)NC(=O)CN2CCN(CC(=O)[O-])CCN(CC(=O)[O-])CCN(CC(=O)[O-])CC2)cc1C(C)C.[177Lu+3] (mixture of isomers) |  | mouse, HT-29 xenograft | 168 h post injection, biodistribution | reference: tumour over lung uptake | tumour-to-lung ratio | 2.83 |
| C=CC(=O)Nc1cccc(Cn2ncc3cnc(Nc4cnn(CCOC)c4)nc32)c1 |  | human, both sexes, whole blood | 5 µM, 30 min |  | remaining compound | 90.4% |

A few entries again:
| SMILES | assay | system | conditions | scale | endpoint | result |
| --- | --- | --- | --- | --- | --- | --- |
| CN(C)c1ccc(-c2oc3cc4ccccc4cc3c(=O)c2O)cc1 |  | DMSO | with: visible light |  | CO release quantum yield | 0.006 |
